Results collected from several papers.
Compare with care: the assays were run in different laboratories.
Target: histidine kinase ComD (Streptococcus pneumoniae serotype 2, UniProt A0A0H2ZM50)
Organism: Streptococcus pneumoniae
One construct used (A0A0H2ZM50 1-441): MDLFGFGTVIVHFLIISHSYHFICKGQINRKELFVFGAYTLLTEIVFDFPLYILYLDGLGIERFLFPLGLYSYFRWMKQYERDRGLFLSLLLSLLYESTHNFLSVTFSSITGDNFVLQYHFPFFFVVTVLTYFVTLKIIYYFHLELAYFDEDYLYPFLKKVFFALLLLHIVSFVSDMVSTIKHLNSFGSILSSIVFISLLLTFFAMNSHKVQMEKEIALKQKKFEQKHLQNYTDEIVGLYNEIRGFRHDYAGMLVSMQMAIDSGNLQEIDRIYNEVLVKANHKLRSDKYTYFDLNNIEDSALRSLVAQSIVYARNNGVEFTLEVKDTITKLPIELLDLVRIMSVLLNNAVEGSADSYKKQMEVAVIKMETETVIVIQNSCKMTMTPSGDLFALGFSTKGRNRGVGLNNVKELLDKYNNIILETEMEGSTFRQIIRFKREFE

`CC[C@H](C)[C@H](NC(=O)[C@H](CC(N)=O)NC(=O)[C@H](Cc1c[nH]cn1)NC(=O)[C@@H](NC(=O)[C@H](CCC(N)=O)NC(=O)[C@H](CCCNC(=N)N)NC(=O)[C@H](CCSC)NC(=O)[C@H](C)N)[C@@H](C)O)C(=O)N[C@@H](Cc1ccccc1)C(=O)N[C@@H](Cc1ccccc1)C(=O)N[C@@H](CC(N)=O)C(=O)N[C@@H](CC(C)C)C(=O)N[C@@H](Cc1ccccc1)C(=O)N[C@@H](CCCCN)C(=O)N[C@@H](CCCNC(=N)N)C(=O)N[C@@H](CCCNC(=N)N)C(=O)O` has an IC50 of over 10 µM (reporter gene, antagonist; D39 comX::lacZ; 30 min, 37 °C, together with: CSP1 50 nM).
With `CC[C@H](C)[C@H](NC(=O)[C@H](Cc1ccccc1)NC(=O)[C@H](CCCNC(=N)N)NC(=O)[C@H](CO)NC(=O)[C@H](CC(C)C)NC(=O)[C@H](CCCNC(=N)N)NC(=O)[C@H](CCSC)NC(=O)[C@@H](N)CCC(=O)O)C(=O)N[C@@H](CC(C)C)C(=O)N[C@@H](CC(=O)O)C(=O)N[C@@H](Cc1ccccc1)C(=O)N[C@@H](CC(C)C)C(=O)N[C@@H](Cc1ccccc1)C(=O)N[C@@H](CC(C)C)C(=O)N[C@@H](CCCNC(=N)N)C(=O)O` the EC50 was over 1 µM.
`CC[C@H](C)[C@H](NC(=O)[C@H](Cc1ccccc1)NC(=O)[C@@H]1CCCNC(=O)NCC[C@H](NC(=O)[C@H](CO)NC(=O)[C@H](CC(C)C)NC(=O)[C@H](CCCNC(=N)N)NC(=O)[C@H](CCSC)NC(=O)[C@H](C)N)C(=O)N[C@@H](Cc2ccccc2)C(=O)N[C@@H](Cc2ccccc2)C(=O)N[C@@H](CCCNC(=N)N)C(=O)N1)C(=O)N[C@@H](CC(C)C)C(=O)N[C@@H](CCC(N)=O)C(=O)N[C@@H](CCCNC(=N)N)C(=O)N[C@@H](CCCCN)C(=O)N[C@@H](CCCCN)C(=O)O` gave an IC50 of over 1 µM (Streptococcus pneumoniae cells).
`CC[C@H](C)[C@H](NC(=O)[C@@H](N)CCC(=O)O)C(=O)N[C@@H](CCCNC(=N)N)C(=O)N[C@@H](CCC(N)=O)C(=O)N[C@H](C(=O)N[C@@H](Cc1c[nH]cn1)C(=O)N[C@@H](Cc1ccccc1)C(=O)N[C@@H](Cc1ccccc1)C(=O)N[C@@H](Cc1ccccc1)C(=O)N[C@@H](Cc1ccccc1)C(=O)N[C@@H](Cc1ccccc1)C(=O)N[C@@H](Cc1ccccc1)C(=O)N[C@@H](Cc1ccccc1)C(=O)N[C@@H](CCCCN)C(=O)N[C@@H](CCCNC(=N)N)C(=O)N[C@@H](CCCNC(=N)N)C(=O)O)[C@@H](C)O` has an EC50 of over 10 µM (reporter gene, agonist; D39 comX::lacZ; 30 min, pH 7.3, 37 °C).
The IC50 of `CC[C@H](C)[C@H](NC(=O)[C@H](Cc1ccccc1)NC(=O)[C@@H]1CCCNC(=O)NCCC[C@H](NC(=O)[C@H](CO)NC(=O)[C@H](CC(C)C)NC(=O)[C@H](CCCNC(=N)N)NC(=O)[C@H](CCSC)NC(=O)[C@H](C)N)C(=O)N[C@@H](Cc2ccccc2)C(=O)N[C@@H](Cc2ccccc2)C(=O)N[C@@H](CCCNC(=N)N)C(=O)N1)C(=O)N[C@@H](CC(C)C)C(=O)N[C@@H](CCC(N)=O)C(=O)N[C@@H](CCCNC(=N)N)C(=O)N[C@@H](CCCCN)C(=O)N[C@@H](CCCCN)C(=O)O` is reported as over 1 µM (Streptococcus pneumoniae cells).
`CC[C@H](C)[C@H](NC(=O)[C@H](C)N)C(=O)N[C@@H](CCCNC(=N)N)C(=O)N[C@@H](CCC(N)=O)C(=O)N[C@H](C(=O)N[C@@H](Cc1c[nH]cn1)C(=O)N[C@@H](CC(N)=O)C(=O)N[C@H](C(=O)N[C@@H](Cc1ccccc1)C(=O)N[C@@H](Cc1ccccc1)C(=O)N[C@@H](Cc1ccccc1)C(=O)N[C@@H](CC(C)C)C(=O)N[C@@H](Cc1ccccc1)C(=O)N[C@@H](CCCCN)C(=O)N[C@@H](CCCNC(=N)N)C(=O)N[C@@H](CCCNC(=N)N)C(=O)O)[C@@H](C)CC)[C@@H](C)O` has an IC50 of over 10 µM (reporter gene, antagonist; D39 comX::lacZ; 30 min, 37 °C, together with: CSP1 50 nM).
`CC[C@H](C)[C@H](NC(=O)[C@H](Cc1ccccc1)NC(=O)[C@H](C)NC(=O)[C@H](C)NC(=O)[C@H](Cc1ccccc1)NC(=O)[C@H](Cc1ccccc1)NC(=O)[C@H](C)NC(=O)[C@H](C)NC(=O)[C@H](CC(C)C)NC(=O)[C@H](CCCNC(=N)N)NC(=O)[C@H](CCSC)NC(=O)[C@@H](N)CCC(=O)O)C(=O)N[C@@H](CC(C)C)C(=O)N[C@@H](C)C(=O)N[C@@H](CCCNC(=N)N)C(=O)N[C@@H](CCCCN)C(=O)N[C@@H](CCCCN)C(=O)O` has an EC50 of over 1 µM.
`CC[C@H](C)[C@H](NC(=O)[C@H](Cc1ccccc1)NC(=O)[C@@H]1CNC(=O)NCCC[C@H](NC(=O)[C@H](CO)NC(=O)[C@H](CC(C)C)NC(=O)[C@H](CCCNC(=N)N)NC(=O)[C@H](CCSC)NC(=O)[C@H](C)N)C(=O)N[C@@H](Cc2ccccc2)C(=O)N[C@@H](Cc2ccccc2)C(=O)N[C@@H](CCCNC(=N)N)C(=O)N1)C(=O)N[C@@H](CC(C)C)C(=O)N[C@@H](CCC(N)=O)C(=O)N[C@@H](CCCNC(=N)N)C(=O)N[C@@H](CCCCN)C(=O)N[C@@H](CCCCN)C(=O)O` gave an IC50 of over 1 µM (Streptococcus pneumoniae cells).
`CC[C@H](C)[C@H](NC(=O)[C@H](Cc1ccccc1)NC(=O)[C@H](C)NC(=O)[C@H](C)NC(=O)[C@H](Cc1ccccc1)NC(=O)[C@H](Cc1ccccc1)NC(=O)[C@H](C)NC(=O)[C@H](C)NC(=O)[C@H](CC(C)C)NC(=O)[C@H](CCCNC(=N)N)NC(=O)[C@H](CCSC)NC(=O)[C@@H](N)CCC(=O)O)C(=O)N[C@@H](C)C(=O)N[C@@H](C)C(=O)N[C@@H](CCCNC(=N)N)C(=O)N[C@@H](CCCCN)C(=O)N[C@@H](CCCCN)C(=O)O` has an EC50 of over 1 µM.
`CCC[C@H](NC(=O)[C@H](CCCNC(=N)N)NC(=O)[C@H](CCSC)NC(=O)[C@H](C)N)C(=O)N[C@@H](CO)C(=O)N[C@@H](CCCNC(=N)N)C(=O)N[C@H](C(=O)N[C@@H](Cc1ccccc1)C(=O)N[C@@H](CCCNC(=N)N)C(=O)N[C@H](CC(=O)O)C(=O)N[C@@H](Cc1ccccc1)C(=O)N[C@@H](CC(C)C)C(=O)N[C@@H](CC(C)C)C(=O)N[C@@H](CCC(N)=O)C(=O)N[C@@H](CCCNC(=N)N)C(=O)N[C@@H](CCCCN)C(=O)N[C@@H](CCCCN)C(=O)O)[C@@H](C)CC` gave an IC50 of over 1 µM.

For quick reference, copied from above:
`CC[C@H](C)[C@H](NC(=O)[C@H](C)N)C(=O)N[C@@H](CCCNC(=N)N)C(=O)N[C@@H](CCC(N)=O)C(=O)N[C@H](C(=O)N[C@@H](Cc1c[nH]cn1)C(=O)N[C@@H](CC(N)=O)C(=O)N[C@H](C(=O)N[C@@H](Cc1ccccc1)C(=O)N[C@@H](Cc1ccccc1)C(=O)N[C@@H](Cc1ccccc1)C(=O)N[C@@H](CC(C)C)C(=O)N[C@@H](Cc1ccccc1)C(=O)N[C@@H](CCCCN)C(=O)N[C@@H](CCCNC(=N)N)C(=O)N[C@@H](CCCNC(=N)N)C(=O)O)[C@@H](C)CC)[C@@H](C)O` has an IC50 of over 10 µM (reporter gene, antagonist; D39 comX::lacZ; 30 min, 37 °C, together with: CSP1 50 nM).
